# Experimental data from different studies.
# Compare with care: the assays were run in different laboratories.
# Sequence of UniProt O14965 (whole entry, looked up): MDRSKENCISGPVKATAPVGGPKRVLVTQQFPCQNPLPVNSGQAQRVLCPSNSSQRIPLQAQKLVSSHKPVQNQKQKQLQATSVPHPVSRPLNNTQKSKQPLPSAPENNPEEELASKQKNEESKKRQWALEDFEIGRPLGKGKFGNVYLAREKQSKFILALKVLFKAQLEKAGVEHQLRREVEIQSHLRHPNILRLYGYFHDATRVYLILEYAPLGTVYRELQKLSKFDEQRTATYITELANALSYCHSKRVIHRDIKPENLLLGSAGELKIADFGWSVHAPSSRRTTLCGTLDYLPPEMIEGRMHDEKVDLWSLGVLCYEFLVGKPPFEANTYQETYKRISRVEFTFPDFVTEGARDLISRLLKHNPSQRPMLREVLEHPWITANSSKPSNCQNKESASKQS
# Sequence of UniProt P07332 (whole entry, looked up): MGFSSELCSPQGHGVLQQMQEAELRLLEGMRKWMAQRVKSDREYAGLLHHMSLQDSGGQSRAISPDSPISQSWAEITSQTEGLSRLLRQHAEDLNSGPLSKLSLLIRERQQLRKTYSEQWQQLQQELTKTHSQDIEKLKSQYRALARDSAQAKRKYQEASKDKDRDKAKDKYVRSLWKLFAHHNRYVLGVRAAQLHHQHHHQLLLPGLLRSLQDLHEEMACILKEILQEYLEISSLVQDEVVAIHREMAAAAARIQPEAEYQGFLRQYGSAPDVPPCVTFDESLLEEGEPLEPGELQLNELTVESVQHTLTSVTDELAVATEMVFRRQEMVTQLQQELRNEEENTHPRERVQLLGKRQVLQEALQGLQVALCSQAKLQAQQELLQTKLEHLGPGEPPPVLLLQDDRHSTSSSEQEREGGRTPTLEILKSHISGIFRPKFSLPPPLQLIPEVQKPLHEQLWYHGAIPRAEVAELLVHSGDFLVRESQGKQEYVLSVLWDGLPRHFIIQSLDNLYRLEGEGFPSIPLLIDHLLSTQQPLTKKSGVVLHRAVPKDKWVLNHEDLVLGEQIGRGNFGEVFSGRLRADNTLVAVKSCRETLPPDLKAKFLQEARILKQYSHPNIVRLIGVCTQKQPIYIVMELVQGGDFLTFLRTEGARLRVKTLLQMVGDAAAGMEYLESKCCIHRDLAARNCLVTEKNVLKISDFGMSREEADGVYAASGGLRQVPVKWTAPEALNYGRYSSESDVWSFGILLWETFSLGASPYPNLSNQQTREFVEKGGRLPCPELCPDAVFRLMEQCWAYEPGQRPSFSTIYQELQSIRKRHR
SMILES,target or system,assay,system,conditions,endpoint,result
CN(C)c1cc(NC(=O)Cc2cscn2)c(O)c2c1C[C@H]1C[C@H]3[C@H](N(C)C)C(O)=C(C(N)=O)C(=O)[C@@]3(O)C(O)=C1C2=O,Mycobacterium tuberculosis,"microbial growth, broth dilution",H37RV,"7 days, pH 7.4",MIC,0.8 µg/mL
C[C@@H](O)[C@H]1C(=O)N2C(C(=O)O)=C(S[C@@H]3CN[C@H](C(=O)N(C)C)C3)[C@H](C)[C@H]12,Klebsiella pneumoniae,"microbial growth, broth dilution",,"20 h, clinical isolate",MIC,< 0.5 µg/mL
C=C(NC(=O)C(=C)NC(=O)c1csc(C2=N[C@@H]3c4csc(n4)[C@H]4NC(=O)c5csc(n5)[C@H]([C@](C)(O)[C@@H](C)O)NC(=O)[C@H]5CSC(=N5)/C(=C/C)NC(=O)[C@H]([C@@H](C)O)NC(=O)c5csc(n5)[C@]3(CC2)NC(=O)[C@H](C)NC(=O)C(=C)NC(=O)[C@H](C)NC(=O)[C@H]([C@@H](C)CC)N[C@@H]2C=Cc3c([C@H](C)O)cc(nc3[C@H]2O)C(=O)O[C@@H]4C)n1)C(N)=O,Enterococcus hirae,microbial growth,ATCC10541,,MIC,0.045 µM
Cc1c(CN(C)C(=O)/C=C/c2cnc3c(c2)CC(CCN)C(=O)N3)oc2ccccc12.Cl (stereo not shown),Klebsiella pneumoniae,"microbial growth, broth dilution",,,MIC,32 µg/mL
CN(C)c1cc(NC(=O)c2ccccn2)c(O)c2c1C[C@H]1C[C@H]3[C@H](N(C)C)C(O)=C(C(N)=O)C(=O)[C@@]3(O)C(O)=C1C2=O,Mycobacterium tuberculosis,"microbial growth, broth dilution",H37RV,"7 days, pH 7.4",MIC,> 200 µg/mL
Cc1c(NC(=O)OC[C@@H]2COCCN2)cn2ncnc(Nc3ccc4c(cnn4Cc4cccc(F)c4)c3)c12,Staphylococcus aureus,microbial growth,NCTC8325,,MIC,> 30 µM
CN(Cc1ccc(C2(C(F)(F)F)CC2)cc1)Cc1cccc2ccccc12.Cl,Trichophyton rubrum,"microbial growth, broth dilution",ATCC28188,6 days,MIC,250 µg/mL
OC(Cn1cncn1)(Cn1cncn1)c1ccc(F)cc1F,Candida albicans,"microbial growth, broth dilution",SC5314,24 h,MIC,3.12 µM
Cc1ccc(NC(=O)Nc2cc(C(C)(C)C)on2)cc1,Staphylococcus aureus,microbial growth,NCTC8325,,MIC,> 100 µM
NC[C@H]1O[C@H](O[C@H]2[C@H](O)[C@@H](O[C@H]3O[C@H](CO)[C@@H](O)[C@H](N)[C@H]3O)[C@H](N)C[C@@H]2N)[C@H](N)C[C@@H]1O,Pseudomonas aeruginosa,"microbial growth, broth dilution",,clinical isolate,MIC,9.6 µM
CN(C)c1cc(NC(=O)CNC(C)(C)C)c(O)c2c1C[C@H]1C[C@H]3[C@H](N(C)C)C(O)=C(C(N)=O)C(=O)[C@@]3(O)C(O)=C1C2=O,Mycobacterium tuberculosis,"microbial growth, broth dilution",H37RV,"7 days, pH 7.4",MIC,0.2 µg/mL
CC(=O)NC[C@H]1CN(c2ccc(N3CCOCC3)c(F)c2)C(=O)O1,Staphylococcus epidermidis,microbial growth,MRSE,,MIC,1 µg/mL
Nc1nc(Nc2ccc(S(N)(=O)=O)cc2)nn1C(=O)c1c(F)cccc1F,Staphylococcus aureus,microbial growth,NCTC8325,,MIC,> 30 µM
C#CCON=C1C=CC(=C(C#N)c2ccccc2)C=C1,Candida tropicalis,"microbial growth, broth dilution",ATCC13803,48 h,MIC,32 µg/mL
Cc1nc(NC(=O)N2CCC[C@H]2C(N)=O)sc1-c1csc(C(C)(C)C)n1,Staphylococcus aureus,microbial growth,NCTC8325,,MIC,> 30 µM
Clc1ccc(Nc2cc3nc4ccccc4n(-c4ccc(Cl)cc4)c-3c/c2=N\OCc2ccccc2)cc1,Neisseria gonorrhoeae,microbial growth,ATCC49226,,MIC,30 µM
CC(=O)N1CCN(c2ccc(OCC3COC(Cn4ccnc4)(c4ccc(Cl)cc4Cl)O3)cc2)CC1 (stereo not shown),Candida albicans,"microbial growth, broth dilution",SP3902,48 h,MIC,4 µM
CN(C)c1cc(NC(=O)Cc2cccnc2)c(O)c2c1C[C@H]1C[C@H]3[C@H](N(C)C)C(O)=C(C(N)=O)C(=O)[C@@]3(O)C(O)=C1C2=O,Mycobacterium tuberculosis,"microbial growth, broth dilution",H37RV,"7 days, pH 7.4",MIC,0.8 µg/mL
CCON=C1C=CC(=C(C#N)c2ccccc2)C=C1,Candida tropicalis,"microbial growth, broth dilution",ATCC13803,48 h,MIC,256 µg/mL
Cc1[nH]c(C(=O)Nc2ccc(C(=O)NCc3n[nH]c(=O)o3)cc2N2CCNCC2)c(Cl)c1Cl.Cl,Klebsiella pneumoniae,"microbial growth, broth dilution",ATCC700603,,MIC,> 32 µg/mL
CC[C@H]1OC(=O)[C@H](C)[C@@H](O[C@H]2C[C@@](C)(OC)[C@@H](O)[C@H](C)O2)[C@H](C)[C@@H](O[C@@H]2O[C@H](C)C[C@H](N(C)C)[C@H]2O)[C@](C)(O)C[C@@H](C)/C(=N\OCOCCOC)[C@H](C)[C@@H](O)[C@]1(C)O,Streptococcus pneumoniae,"microbial growth, agar dilution",ATCC49619,,MIC,2 µg/mL
CN(C)c1cc(NC(=O)Cc2ccccn2)c(O)c2c1C[C@H]1C[C@H]3[C@H](N(C)C)C(O)=C(C(N)=O)C(=O)[C@@]3(O)C(O)=C1C2=O,Mycobacterium tuberculosis,"microbial growth, broth dilution",H37RV,"7 days, pH 7.4",MIC,0.8 µg/mL
O=C(O)c1cn(C2CC2)c2cc(N3CCNCC3)c(F)cc2c1=O,Micrococcus luteus,microbial growth,ATCC4698,,MIC,1 µg/mL
Cc1[nH]nc2ccc(-c3cncc(OC[C@@H](N)Cc4ccccc4)c3)cc12,Staphylococcus aureus,microbial growth,NCTC8325,,MIC,> 30 µM
OC(Cn1cncn1)(Cn1cncn1)c1ccc(F)cc1F,Candida albicans,microbial growth,SC5314,,MIC,0.5 µg/mL
CCCNC(=O)Nc1ccc(Oc2ncnc3cc(OC)c(OC)cc23)cc1Cl,Staphylococcus aureus,microbial growth,NCTC8325,,MIC,> 30 µM
CN[C@H](CC(C)C)C(=O)N[C@H]1C(=O)N[C@@H](CC(N)=O)C(=O)N[C@H]2C(=O)N[C@H]3C(=O)N[C@H](C(=O)N[C@H](C(=O)O)c4cc(O)cc(O)c4-c4cc3ccc4O)[C@H](O)c3ccc(c(Cl)c3)Oc3cc2cc(c3O[C@@H]2O[C@H](CO)[C@@H](O)[C@H](O)[C@H]2O[C@H]2C[C@](C)(N)[C@H](O)[C@H](C)O2)Oc2ccc(cc2Cl)[C@H]1O,Streptococcus pneumoniae,"microbial growth, broth dilution",ATCC49619,20 h,MIC,4 µg/mL
NC1(Cc2ccc(Cl)cc2)CCN(c2ncnc3[nH]ccc23)CC1,Staphylococcus aureus,microbial growth,NCTC8325,,MIC,> 30 µM
COc1cc(-c2cncc3c2CN(C)Cc2cc(N4CCNCC4)ccc2-3)cc(OC)c1OC,"Aurora kinase A (AURKA, Homo sapiens, UniProt O14965)","enzyme activity, inhibitor",,1 µM,remaining activity,104%
CNC(=O)Nc1ccc(-c2nc(N3CC4CCC(C3)O4)c3cnn(C4CCC5(CC4)OCCO5)c3n2)cc1,Staphylococcus aureus,microbial growth,NCTC8325,,MIC,> 30 µM
CNc1ncc2c(/C=C/C(=O)N3CCC(OC)CC3)nn(Cc3cccc(C(F)(F)F)c3)c2n1,"FES (Homo sapiens, UniProt P07332)","enzyme activity, inhibitor, radiometric",,1 µM,remaining activity,90%
